Assay results collected from several papers.
Protocols differ between the studies behind these lines. Values joined by “and” are separate records of one study, mostly repeats; a detail may differ.
CALCR: Calcitonin receptor (CALCR, Homo sapiens, UniProt P30988)
Chain of UniProt P34972 (whole entry, looked up): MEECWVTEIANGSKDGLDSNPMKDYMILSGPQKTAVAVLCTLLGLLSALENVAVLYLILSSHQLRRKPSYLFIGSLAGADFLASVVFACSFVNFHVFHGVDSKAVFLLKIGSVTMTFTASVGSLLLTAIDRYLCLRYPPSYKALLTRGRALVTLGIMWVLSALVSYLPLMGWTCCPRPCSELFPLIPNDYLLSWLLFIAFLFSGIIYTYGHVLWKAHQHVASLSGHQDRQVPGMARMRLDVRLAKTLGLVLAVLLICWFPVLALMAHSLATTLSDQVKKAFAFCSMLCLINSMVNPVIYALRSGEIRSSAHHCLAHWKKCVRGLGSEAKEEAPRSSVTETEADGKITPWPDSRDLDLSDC
Chain of UniProt P30988 (whole entry, looked up): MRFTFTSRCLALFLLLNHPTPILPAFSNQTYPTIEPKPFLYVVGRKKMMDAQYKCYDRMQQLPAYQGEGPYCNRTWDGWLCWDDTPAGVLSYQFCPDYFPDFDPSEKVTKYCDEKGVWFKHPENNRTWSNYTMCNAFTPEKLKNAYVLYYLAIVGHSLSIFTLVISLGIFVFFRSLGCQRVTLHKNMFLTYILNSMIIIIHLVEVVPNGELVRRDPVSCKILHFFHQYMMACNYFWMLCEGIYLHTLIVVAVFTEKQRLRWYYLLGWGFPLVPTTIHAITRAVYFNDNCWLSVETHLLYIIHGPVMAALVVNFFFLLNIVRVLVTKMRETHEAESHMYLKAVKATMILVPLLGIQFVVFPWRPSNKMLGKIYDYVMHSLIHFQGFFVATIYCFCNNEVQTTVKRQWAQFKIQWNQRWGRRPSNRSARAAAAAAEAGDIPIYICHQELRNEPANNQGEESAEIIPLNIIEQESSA
Chain of UniProt Q9H8M2 (whole entry, looked up): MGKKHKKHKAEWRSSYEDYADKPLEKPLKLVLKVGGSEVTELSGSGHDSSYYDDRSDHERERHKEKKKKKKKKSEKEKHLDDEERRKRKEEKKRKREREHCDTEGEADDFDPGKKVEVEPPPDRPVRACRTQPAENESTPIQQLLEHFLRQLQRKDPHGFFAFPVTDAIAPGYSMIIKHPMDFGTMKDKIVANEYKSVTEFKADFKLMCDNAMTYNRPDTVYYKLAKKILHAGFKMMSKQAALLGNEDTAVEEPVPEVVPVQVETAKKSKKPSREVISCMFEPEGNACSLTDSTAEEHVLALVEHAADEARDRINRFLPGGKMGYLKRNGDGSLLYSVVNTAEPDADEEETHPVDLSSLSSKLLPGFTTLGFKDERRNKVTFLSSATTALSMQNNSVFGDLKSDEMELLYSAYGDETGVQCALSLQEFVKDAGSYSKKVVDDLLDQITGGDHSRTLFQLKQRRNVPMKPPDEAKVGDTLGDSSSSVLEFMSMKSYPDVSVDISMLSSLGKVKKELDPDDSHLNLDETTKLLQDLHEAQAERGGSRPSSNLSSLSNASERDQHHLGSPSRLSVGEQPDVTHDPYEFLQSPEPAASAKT
Chain of UniProt P40337 (whole entry, looked up): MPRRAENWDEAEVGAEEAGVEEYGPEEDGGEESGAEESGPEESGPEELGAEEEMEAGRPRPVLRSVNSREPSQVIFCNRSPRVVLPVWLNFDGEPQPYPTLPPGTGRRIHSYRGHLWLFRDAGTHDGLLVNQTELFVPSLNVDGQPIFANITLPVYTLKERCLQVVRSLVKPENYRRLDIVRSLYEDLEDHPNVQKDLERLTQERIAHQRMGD
Chain of UniProt P45984 (whole entry, looked up): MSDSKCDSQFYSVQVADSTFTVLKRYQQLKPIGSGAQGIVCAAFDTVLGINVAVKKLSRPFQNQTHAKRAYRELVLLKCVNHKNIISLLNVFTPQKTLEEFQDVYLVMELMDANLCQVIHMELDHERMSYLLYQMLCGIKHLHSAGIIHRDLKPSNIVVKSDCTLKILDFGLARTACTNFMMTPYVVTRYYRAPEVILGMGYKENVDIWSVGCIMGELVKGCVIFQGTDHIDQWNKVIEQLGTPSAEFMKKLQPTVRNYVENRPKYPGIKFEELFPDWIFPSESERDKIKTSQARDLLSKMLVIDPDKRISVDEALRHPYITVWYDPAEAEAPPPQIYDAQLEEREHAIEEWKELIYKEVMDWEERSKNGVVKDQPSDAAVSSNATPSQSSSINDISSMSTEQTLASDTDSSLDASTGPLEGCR
Chain of UniProt Q04206 (whole entry, looked up): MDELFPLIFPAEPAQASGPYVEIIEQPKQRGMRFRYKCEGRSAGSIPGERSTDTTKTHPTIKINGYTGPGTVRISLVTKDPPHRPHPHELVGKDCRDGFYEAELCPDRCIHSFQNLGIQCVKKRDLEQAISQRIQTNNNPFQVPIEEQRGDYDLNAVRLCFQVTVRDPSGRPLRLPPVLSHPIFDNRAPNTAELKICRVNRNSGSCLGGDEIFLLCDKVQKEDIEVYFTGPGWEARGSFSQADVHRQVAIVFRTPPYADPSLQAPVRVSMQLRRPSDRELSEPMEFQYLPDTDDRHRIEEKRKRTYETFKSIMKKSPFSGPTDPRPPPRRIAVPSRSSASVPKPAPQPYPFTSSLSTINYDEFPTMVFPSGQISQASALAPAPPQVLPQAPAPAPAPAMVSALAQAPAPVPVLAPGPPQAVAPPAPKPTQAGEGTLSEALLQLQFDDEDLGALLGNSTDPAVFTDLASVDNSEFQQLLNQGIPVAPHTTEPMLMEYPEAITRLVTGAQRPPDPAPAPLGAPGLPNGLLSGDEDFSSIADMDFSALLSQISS
Chain of UniProt P48547 (whole entry, looked up): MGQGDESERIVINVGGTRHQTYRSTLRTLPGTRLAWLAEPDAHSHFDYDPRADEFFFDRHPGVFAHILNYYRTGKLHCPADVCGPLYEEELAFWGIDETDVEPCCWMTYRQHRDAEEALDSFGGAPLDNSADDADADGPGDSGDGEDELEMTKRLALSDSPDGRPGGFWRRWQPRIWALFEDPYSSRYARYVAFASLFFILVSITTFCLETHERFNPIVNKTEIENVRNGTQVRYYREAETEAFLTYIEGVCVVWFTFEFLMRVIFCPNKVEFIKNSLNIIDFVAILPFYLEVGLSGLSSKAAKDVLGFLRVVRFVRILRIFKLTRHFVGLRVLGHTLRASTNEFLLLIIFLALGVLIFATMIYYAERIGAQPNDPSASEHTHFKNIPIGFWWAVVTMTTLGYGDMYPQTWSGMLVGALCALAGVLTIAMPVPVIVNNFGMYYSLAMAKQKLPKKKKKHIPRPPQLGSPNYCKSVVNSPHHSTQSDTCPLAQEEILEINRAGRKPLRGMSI
Chain of UniProt P49286 (whole entry, looked up): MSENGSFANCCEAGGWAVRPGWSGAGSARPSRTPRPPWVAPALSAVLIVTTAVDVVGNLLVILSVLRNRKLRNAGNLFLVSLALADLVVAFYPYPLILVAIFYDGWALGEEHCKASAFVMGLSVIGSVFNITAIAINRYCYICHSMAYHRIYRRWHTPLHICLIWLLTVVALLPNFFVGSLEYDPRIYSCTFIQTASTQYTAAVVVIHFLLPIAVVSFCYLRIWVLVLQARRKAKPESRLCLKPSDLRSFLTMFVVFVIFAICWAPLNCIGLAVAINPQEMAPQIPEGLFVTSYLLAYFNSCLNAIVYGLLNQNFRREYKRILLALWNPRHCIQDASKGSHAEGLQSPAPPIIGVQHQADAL
Chain of UniProt P61981 (whole entry, looked up): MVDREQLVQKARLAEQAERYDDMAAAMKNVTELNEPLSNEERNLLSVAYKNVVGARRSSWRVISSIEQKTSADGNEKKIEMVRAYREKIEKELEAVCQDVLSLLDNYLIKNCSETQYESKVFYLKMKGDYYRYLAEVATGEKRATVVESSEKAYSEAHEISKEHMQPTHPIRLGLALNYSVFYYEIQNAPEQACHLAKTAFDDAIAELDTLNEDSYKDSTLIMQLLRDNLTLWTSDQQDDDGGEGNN

| Compound | tested on | assay | system | conditions | how to read | endpoint | result |
| --- | --- | --- | --- | --- | --- | --- | --- |
| COc1cc(I)c(Cc2cc(OC)c(OC)cc2CC(=O)OC(C)(C)C)cc1OC | MTNR1B (Homo sapiens, UniProt P49286) | β-arrestin recruitment, agonist | – | – | – | EC50 | 1.78 µM |
| CC(=O)NCC1CCCCN1c1nc(NCC2Cc3ccccc3O2)nc(N2CC3C(CCOc4cc(-c5scnc5C)ccc4CNC(=O)C4CC(O)CN4C(=O)C(NC(=O)C4(F)CC4)C(C)(C)C)C3C2)n1 (stereo not shown) | VHL/BRD9, with Elongin B/C (Homo sapiens, UniProt P40337+Q9H8M2) | ternary complex formation, AlphaScreen | – | added: 50 nM His-BRD9 and 20 nM biotin-VCB | – | EC50 | 0.58 µM |
| C=C(NC(=O)c1csc(-c2nc3c(cc2O)-c2nc(cs2)C(=O)NC(C(C)O)C(=O)NC(=C(C)OC)c2nc(cs2)C(=O)NC2c4nc(cs4)C(=O)NC(COC(=O)c4c5c6c(cccc6n4O)COC(=O)C(OC4CC(C)(O)C(N(C)C)C(C)O4)C2OC5)c2nc-3cs2)n1)C(N)=O (stereo not shown) | – | – | Sprague-Dawley rat, female, plasma | intravenous infusion, 6 mg/kg single dose | – | clearance | 42.8 mL/min/kg |
| CC[C@H](C)[C@@H](C(=O)N[C@@H](CC(C)C)C(=O)N[C@@H](CO)C(=O)N[C@@H](CO)C(=O)N[C@H](C(=O)N[C@@H](CCC(=O)O)C(=O)N[C@H](C(=O)NCC(=O)N[C@@H](CO)C(=O)N[C@@H](CC(N)=O)C(=O)N[C@H](C(=O)N1C[C@H](O)C[C@H]1C(N)=O)[C@@H](C)O)C(C)C)[C@@H](C)O)N(C)C(=O)[C@H](C)NC(=O)CN(C)C(=O)[C@H](Cc1ccccc1)NC(=O)[C@H](CO)NC(=O)[C@H](CO)NC(=O)[C@H](CCCNC(=N)N)NC(=O)[C@H](CCC(N)=O)NC(=O)[C@H](CC(C)C)NC(=O)[C@H](Cc1ccccc1)NC(=O)[C@H](Cc1c[nH]cn1)NC(=O)[C@H](C)NC(=O)[C@H](CC(C)C)NC(=O)[C@H](CCCNC(=N)N)NC(=O)[C@H](CCC(=O)O)NC(=O)[C@@H](NC(=O)[C@H](C)NC(=O)[C@@H]1CNC(=O)C[C@H](NC(=O)[C@H](CCCNC(=N)N)NC(=O)CC[C@H](NC(=O)CCCCCCCCCCCCCCCCCCC(=O)O)C(=O)O)C(=O)NCC(=O)N[C@@H]([C@@H](C)O)C(=O)N[C@@H](C)C(=O)N[C@@H]([C@@H](C)O)C(=O)N1)[C@@H](C)O | CALCR | cAMP, agonist | – | – | – | EC50 | 1.07 µM |
| CC(=O)NCC1CCCCN1c1nc(NCCn2nnc(C)n2)nc(N2CC3C(CCOc4cc(-c5scnc5C)ccc4CNC(=O)[C@@H]4C[C@@H](O)CN4C(=O)[C@@H](NC(=O)C4(F)CC4)C(C)(C)C)C3C2)n1 (stereo partly shown) | VHL/BRD9 (Homo sapiens, UniProt P40337+Q9H8M2) | ternary complex formation, NanoBiT | HEK293T | 2 h, added: MLN4924 2 µM | – | EC50 | 0.024 µM |
| CC[C@H](C)[C@@H](C(=O)N[C@@H](CC(C)C)C(=O)N[C@@H](CO)C(=O)N[C@@H](CO)C(=O)N[C@H](C(=O)N[C@@H](CCC(=O)O)C(=O)N[C@H](C(=O)NCC(=O)N[C@@H](CO)C(=O)N[C@@H](CC(N)=O)C(=O)N[C@H](C(=O)N1C[C@H](O)C[C@H]1C(N)=O)[C@@H](C)O)C(C)C)[C@@H](C)O)N(C)C(=O)[C@H](C)NC(=O)CN(C)C(=O)[C@H](Cc1ccccc1)NC(=O)[C@H](CO)NC(=O)[C@H](CO)NC(=O)[C@H](CCCNC(=N)N)NC(=O)[C@H](CC(N)=O)NC(=O)[C@H](CC(C)C)NC(=O)[C@H](Cc1ccccc1)NC(=O)[C@H](Cc1c[nH]cn1)NC(=O)[C@H](C)NC(=O)[C@H](CC(C)C)NC(=O)[C@H](CCCNC(=N)N)NC(=O)[C@H](CCC(=O)O)NC(=O)[C@@H](NC(=O)[C@H](C)NC(=O)[C@@H]1CSSC[C@H](NC(=O)[C@H](CCCNC(=N)N)NC(=O)CC[C@H](NC(=O)CCCCCCCCCCCCCCCCCCC(=O)O)C(=O)O)C(=O)NCC(=O)N[C@@H]([C@@H](C)O)C(=O)N[C@@H](C)C(=O)N[C@@H]([C@@H](C)O)C(=O)N1)[C@@H](C)O | CALCR | cAMP, agonist | – | – | – | EC50 | 0.000155 µM |
| O=Cc1ccc([N+](=O)[O-])c(OS(=O)(=O)c2cccc(Cl)c2)c1 | YWHAG/RELA, phospho-Ser45 p65 peptide (Homo sapiens, UniProt P61981+Q04206) | ternary complex formation, stabilizer, fluorescence anisotropy | – | – | – | EC50 | > 1000 µM |
| O=C1C[C@H](c2nc(-c3ccc(F)c4cn[nH]c34)no2)CCCN1c1ccc(F)cc1 (racemic) | CNR2 (Homo sapiens, UniProt P34972) | agonist, GloSensor cAMP | CHO expressing CNR2 | – | – | EC50 | 0.0256 µM and 0.0273 µM and 0.027 µM and 0.0267 µM and 0.0258 µM |
| CC[C@H](C)[C@@H](C(=O)N[C@@H](CC(C)C)C(=O)N[C@@H](CO)C(=O)N[C@@H](CO)C(=O)N[C@H](C(=O)N[C@@H](CCC(=O)O)C(=O)N[C@H](C(=O)NCC(=O)N[C@@H](CO)C(=O)N[C@@H](CC(N)=O)C(=O)N[C@H](C(=O)N1C[C@H](O)C[C@H]1C(N)=O)[C@@H](C)O)C(C)C)[C@@H](C)O)N(C)C(=O)[C@H](C)NC(=O)CN(C)C(=O)[C@H](Cc1ccccc1)NC(=O)[C@H](CO)NC(=O)[C@H](CO)NC(=O)[C@H](CCCNC(=N)N)NC(=O)[C@H](CCC(N)=O)NC(=O)[C@H](CC(C)C)NC(=O)[C@H](Cc1ccccc1)NC(=O)[C@H](Cc1c[nH]cn1)NC(=O)[C@H](C)NC(=O)[C@H](CC(C)C)NC(=O)[C@H](CCCNC(=N)N)NC(=O)[C@H](CCC(=O)O)NC(=O)[C@@H](NC(=O)[C@H](C)NC(=O)[C@@H]1CNC(=O)CCC[C@H](NC(=O)[C@H](CCCNC(=N)N)NC(=O)CC[C@H](NC(=O)CCCCCCCCCCCCCCCCCCC(=O)O)C(=O)O)C(=O)NCC(=O)N[C@@H]([C@@H](C)O)C(=O)N[C@@H](C)C(=O)N[C@@H]([C@@H](C)O)C(=O)N1)[C@@H](C)O | CALCR | cAMP, agonist | – | – | – | EC50 | 0.38 µM |
| COC1CN([C@H]2CC[C@H]([C@@]3(C)Oc4c(Cl)cc(C(=O)NCc5c(SC)cc(C)[nH]c5=O)c(C)c4O3)CC2)C1 | – | RNA-seq, item: PCP4L1 mouse homolog | mouse, HT-1376 xenograft, whole blood | dose not given | relative to: vehicle | log2 fold change | 0.456 |
| Cc1nn(-c2cccc(N)c2)c(=O)c2cnc(Nc3ccc(N4CCNCC4)cc3)nc12 | MAPK9 (Homo sapiens, UniProt P45984) | kinase activity, inhibitor, SelectScreen kinase profiling | – | – | – | IC50 | 1.38 µM |
| Cc1cccc(Oc2ccc(-n3c(=O)[nH]c4cccnc43)cn2)c1C | KCNC1 (Homo sapiens, UniProt P48547) | ion current, activator, automated patch clamp | HEK293 expressing Kv3.1 | holding -70 mV, test -15 mV | – | EC50 | 1.5 µM |
| O=C(c1cccc(-c2ccc3ncnc(Nc4ccc(OCc5cccc(F)c5)c(Cl)c4)c3c2)c1)N1CCOCC1 | Leishmania major | intracellular amastigote growth, luciferase | RAW264.7 macrophages | – | – | EC50 | > 15 µM |
